Assay results from different studies.
Protocols differ between the studies behind these lines. Numbers after ± are the reported error.

Cc1cc2nc3c(=O)[nH]c(=O)nc-3n(C[C@H](O)[C@H](O)[C@H](O)CO)c2cc1C — AUC(0-24 h) (human, plasma; oral, dose not given, day 7, together with: rosuvastatin): 147 ng·h/mL
COc1cnc(C(=O)Nc2ccc(F)c([C@]34CN(c5ncc(F)cn5)C[C@H]3CSC(N)=N4)c2)cn1 — AUC(0-24 h) (human, CSF; single dose, 26 mg, geometric mean): 8.53 ng·h/mL
Cl.[2H]C([2H])([2H])CC(=O)c1cnc(NC(=O)C2CC2)cc1Nc1cccc(-c2ncn(C([2H])([2H])[2H])n2)c1OC — AUC(0-24 h) (geometric mean; human; oral, 50 mg single dose, fasted, liquid): 3680 ng·h/mL
Cn1nc2c(=O)n(C3CC3)cnc2c1[C@](O)(c1cnc(C(F)(F)F)c(Cl)c1)C(F)(F)F — AUC(0-24 h) (humanized SCID mice, blood; 30 mg/kg once daily, 6 days, infected): 226 µM·h
COc1cc2nccc(Oc3ccc(NC(=O)c4cc5c(n(-c6ccccc6)c4=O)CCCC5=O)nc3)c2cc1OC — AUC(0-24 h) (human patients; oral, dose not given, day 29, with venetoclax 6 mg once daily): 9840 ng·h/mL
O=C(NO)c1ccc(CN(c2cnccn2)c2cnccn2)cc1 — AUC(0-24 h) (human patients, plasma; oral, 800 mg twice daily, day 1, approximate mean): ~14100 ng·h/mL
N#CCC1CCN(c2nc(Nc3ccc(N4CCC(O)CC4)cc3)c3c(=O)[nH]ncc3n2)CC1 — AUC(0-24 h) (human, plasma; oral, 20 mg once daily, day 1): 580 ng·h/mL
CC1=C(c2cccc(O)c2)[C@H](c2ccc(OCCN3CC(CF)C3)cc2)Oc2ccc(O)cc21 — AUC(0-24 h) (human, plasma; oral, 1000 mg once daily, steady state geometric mean): 1720 ng·h/mL
C#Cc1cccc(Nc2ncnc3cc(OCCOC)c(OCCOC)cc23)c1 — AUC(0-24 h) (human, plasma; oral, 50 mg daily, day 8, together with: docetaxel): 20.5 ± 11.5 µM·h

Repeated from above:
N#CCC1CCN(c2nc(Nc3ccc(N4CCC(O)CC4)cc3)c3c(=O)[nH]ncc3n2)CC1 — AUC(0-24 h) (human, plasma; oral, 20 mg once daily, day 1): 580 ng·h/mL
